# Measurements collected from several papers.
# Numbered parts are unrelated; each lists some results of a single study.
# UniProt Q8TD19, sequence (whole entry, looked up): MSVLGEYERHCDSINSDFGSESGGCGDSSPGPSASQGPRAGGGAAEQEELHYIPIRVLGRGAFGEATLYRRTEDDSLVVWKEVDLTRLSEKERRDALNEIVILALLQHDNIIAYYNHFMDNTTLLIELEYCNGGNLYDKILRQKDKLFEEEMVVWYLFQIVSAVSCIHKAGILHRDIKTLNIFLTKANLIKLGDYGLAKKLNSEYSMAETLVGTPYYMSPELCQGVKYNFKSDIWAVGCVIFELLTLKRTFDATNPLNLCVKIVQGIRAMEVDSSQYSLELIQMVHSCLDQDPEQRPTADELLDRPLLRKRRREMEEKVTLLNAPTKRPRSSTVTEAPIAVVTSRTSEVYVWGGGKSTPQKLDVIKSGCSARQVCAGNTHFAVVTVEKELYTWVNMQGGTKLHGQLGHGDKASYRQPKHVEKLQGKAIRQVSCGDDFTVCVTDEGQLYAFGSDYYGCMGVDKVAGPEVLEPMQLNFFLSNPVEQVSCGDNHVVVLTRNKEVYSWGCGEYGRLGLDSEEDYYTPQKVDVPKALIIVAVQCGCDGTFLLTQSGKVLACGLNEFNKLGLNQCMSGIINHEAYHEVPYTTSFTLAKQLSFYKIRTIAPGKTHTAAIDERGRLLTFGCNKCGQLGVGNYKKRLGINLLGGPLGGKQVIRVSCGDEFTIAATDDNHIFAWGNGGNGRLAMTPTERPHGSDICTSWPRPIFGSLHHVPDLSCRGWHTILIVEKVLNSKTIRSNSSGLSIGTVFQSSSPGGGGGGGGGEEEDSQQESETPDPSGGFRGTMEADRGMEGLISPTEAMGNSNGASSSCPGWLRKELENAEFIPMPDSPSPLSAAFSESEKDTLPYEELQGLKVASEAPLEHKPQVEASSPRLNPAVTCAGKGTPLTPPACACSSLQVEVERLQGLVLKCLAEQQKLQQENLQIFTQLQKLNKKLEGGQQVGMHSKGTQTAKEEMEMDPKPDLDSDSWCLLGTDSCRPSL
# UniProt Q9Y2H1, sequence (whole entry, looked up): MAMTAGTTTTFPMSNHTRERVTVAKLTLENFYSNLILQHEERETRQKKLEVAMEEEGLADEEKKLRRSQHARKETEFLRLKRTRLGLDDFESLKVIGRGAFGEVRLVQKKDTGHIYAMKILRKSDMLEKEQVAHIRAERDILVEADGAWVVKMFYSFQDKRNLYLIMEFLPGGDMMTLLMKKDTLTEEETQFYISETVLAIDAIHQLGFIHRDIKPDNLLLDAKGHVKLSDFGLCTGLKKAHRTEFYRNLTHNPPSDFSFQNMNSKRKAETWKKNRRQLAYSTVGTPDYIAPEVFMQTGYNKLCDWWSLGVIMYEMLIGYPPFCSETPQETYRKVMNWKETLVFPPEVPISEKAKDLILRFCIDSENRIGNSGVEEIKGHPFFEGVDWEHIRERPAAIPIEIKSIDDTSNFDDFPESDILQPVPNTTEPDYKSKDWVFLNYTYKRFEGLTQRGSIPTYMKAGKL
# UniProt P53779, sequence (whole entry, looked up): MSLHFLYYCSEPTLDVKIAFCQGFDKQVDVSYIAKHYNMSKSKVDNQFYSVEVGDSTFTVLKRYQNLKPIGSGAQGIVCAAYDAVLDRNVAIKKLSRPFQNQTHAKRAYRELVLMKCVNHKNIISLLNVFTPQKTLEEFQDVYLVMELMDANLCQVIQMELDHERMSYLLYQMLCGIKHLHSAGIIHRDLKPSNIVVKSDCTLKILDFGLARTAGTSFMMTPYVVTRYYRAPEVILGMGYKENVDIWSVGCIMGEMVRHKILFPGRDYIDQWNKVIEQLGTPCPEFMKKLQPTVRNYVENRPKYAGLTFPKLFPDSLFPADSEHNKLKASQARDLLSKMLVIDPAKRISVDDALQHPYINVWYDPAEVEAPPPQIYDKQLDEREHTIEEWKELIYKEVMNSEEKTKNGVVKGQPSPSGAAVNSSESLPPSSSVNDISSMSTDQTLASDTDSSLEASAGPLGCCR
# UniProt Q9BZL6, sequence (whole entry, looked up): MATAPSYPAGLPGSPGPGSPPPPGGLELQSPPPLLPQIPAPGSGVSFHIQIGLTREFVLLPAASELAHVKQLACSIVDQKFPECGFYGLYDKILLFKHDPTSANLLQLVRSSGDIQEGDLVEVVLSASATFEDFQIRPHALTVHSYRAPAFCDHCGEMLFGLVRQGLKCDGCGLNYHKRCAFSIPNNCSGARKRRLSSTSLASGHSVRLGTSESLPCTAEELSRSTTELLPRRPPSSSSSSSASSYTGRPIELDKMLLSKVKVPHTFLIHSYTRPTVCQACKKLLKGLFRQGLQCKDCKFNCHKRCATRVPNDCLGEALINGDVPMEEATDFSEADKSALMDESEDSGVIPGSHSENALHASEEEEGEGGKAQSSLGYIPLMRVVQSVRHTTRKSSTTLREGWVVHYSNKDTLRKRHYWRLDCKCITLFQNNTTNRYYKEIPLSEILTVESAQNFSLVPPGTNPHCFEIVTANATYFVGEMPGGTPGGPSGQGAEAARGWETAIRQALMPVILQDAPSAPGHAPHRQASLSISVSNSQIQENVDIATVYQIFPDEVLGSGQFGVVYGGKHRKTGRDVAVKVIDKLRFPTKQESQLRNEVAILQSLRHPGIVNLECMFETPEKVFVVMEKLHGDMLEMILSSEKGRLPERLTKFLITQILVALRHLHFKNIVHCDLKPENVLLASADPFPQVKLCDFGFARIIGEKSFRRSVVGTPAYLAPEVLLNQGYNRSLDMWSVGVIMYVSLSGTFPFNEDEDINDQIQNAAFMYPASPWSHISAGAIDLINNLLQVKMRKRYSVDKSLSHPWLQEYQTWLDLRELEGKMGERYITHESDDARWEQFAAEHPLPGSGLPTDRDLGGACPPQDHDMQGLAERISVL
# UniProt Q9H4B4, sequence (whole entry, looked up): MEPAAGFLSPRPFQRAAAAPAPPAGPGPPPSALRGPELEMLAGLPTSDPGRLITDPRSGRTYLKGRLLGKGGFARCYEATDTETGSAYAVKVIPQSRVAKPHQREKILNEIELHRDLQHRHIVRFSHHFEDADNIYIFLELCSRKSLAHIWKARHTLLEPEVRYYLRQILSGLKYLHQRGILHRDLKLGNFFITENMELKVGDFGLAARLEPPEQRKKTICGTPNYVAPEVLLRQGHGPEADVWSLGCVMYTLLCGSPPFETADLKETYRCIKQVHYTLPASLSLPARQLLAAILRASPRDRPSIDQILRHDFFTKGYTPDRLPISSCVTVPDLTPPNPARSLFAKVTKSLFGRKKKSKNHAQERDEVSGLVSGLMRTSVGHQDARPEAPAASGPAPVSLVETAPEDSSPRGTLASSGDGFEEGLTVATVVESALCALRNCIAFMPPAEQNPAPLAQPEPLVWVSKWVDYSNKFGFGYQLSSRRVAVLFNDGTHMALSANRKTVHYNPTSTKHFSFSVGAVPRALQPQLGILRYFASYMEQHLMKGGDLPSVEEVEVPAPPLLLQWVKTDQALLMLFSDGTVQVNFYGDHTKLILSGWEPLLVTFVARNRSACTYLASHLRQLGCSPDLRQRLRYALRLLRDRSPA

# Sample 1
# SMILES: COc1cc(-c2nc3ccc(C(=O)NCCCN(C)C)cc3n2C2CCC2)cc(OC)c1OC
# Method: NanoBRET
# Concentration: 1 µM
target,target occupancy [%]
"STK38L (Homo sapiens, UniProt Q9Y2H1)",-2.65
"Cyclin-dependent kinase 5, with CDK5R1 (CDK5, Homo sapiens, UniProt Q00535)",0.02
"Cyclin-dependent kinase 4, with cyclin D3 (CDK4, Homo sapiens, UniProt P11802)",3.78
"FGFR3 (Homo sapiens, UniProt P22607)",-2.55
"NEK9 (Homo sapiens, UniProt Q8TD19)",4.99
"CSNK2A2 (Homo sapiens, UniProt P19784)",-4.2
"IGF1R (Homo sapiens, UniProt P08069)",-0.53
"NLK (Homo sapiens, UniProt Q9UBE8)",-1.06
"RET (Homo sapiens, UniProt P07949)",2.21
"PRKAA1 (Homo sapiens, UniProt Q13131)",-2.57
"MAP3K20 (Homo sapiens, UniProt Q9NYL2)",0.04
"CDKL2 (Homo sapiens, UniProt Q92772)",1.72
"MAPK10 (Homo sapiens, UniProt P53779)",2.7

# Sample 2
# SMILES: CN(C1COC1)C(C)(C)/C=C(\C#N)C(=O)N1CCC[C@H]1Cn1nc(-c2ccc(Oc3ccccc3)cc2F)c2c(N)ncnc21
# Read-out: kinase activity
target,setting,inhibition [%]
"STK38L (Homo sapiens, UniProt Q9Y2H1)",0.1 µM,0
"TSSK1B (Homo sapiens, UniProt Q9BXA7)",1 µM,2
"DDR2 (Homo sapiens, UniProt Q16832)",1 µM,5
"Protein kinase C beta type, isoform beta-I (PRKCB, Homo sapiens, UniProt P05771)",1 µM,0
"PRKD2 (Homo sapiens, UniProt Q9BZL6)",0.1 µM,14
"NEK9 (Homo sapiens, UniProt Q8TD19)",0.1 µM,1
"PKN1 (Homo sapiens, UniProt Q16512)",1 µM,-3
"SLK (Homo sapiens, UniProt Q9H2G2)",1 µM,-1
"PLK3 (Homo sapiens, UniProt Q9H4B4)",0.1 µM,1
"CAMK2G (Homo sapiens, UniProt Q13555)",0.1 µM,-1
"PRKX (Homo sapiens, UniProt P51817)",1 µM,2
"MARK2 (Homo sapiens, UniProt Q7KZI7)",1 µM,3
"EPHB3 (Homo sapiens, UniProt P54753)",1 µM,-2
"RPS6KB2 (Homo sapiens, UniProt Q9UBS0)",0.1 µM,-3
"TNK1 (Homo sapiens, UniProt Q13470)",1 µM,-1
"TAOK2 (Homo sapiens, UniProt Q9UL54)",0.1 µM,1
"KIT (Homo sapiens, UniProt P10721)",1 µM,10
"PKN2 (Homo sapiens, UniProt Q16513)",0.1 µM,9
"NEK2 (Homo sapiens, UniProt P51955)",1 µM,-1
"DAPK3 (Homo sapiens, UniProt O43293)",0.1 µM,-4
"TAOK3 (Homo sapiens, UniProt Q9H2K8)",1 µM,3

# Sample 3
# SMILES: C[C@@H]1CN(c2ccc(-c3cc(C(=O)NCCOCCOCCOCCOCCNC(=O)/C=C/c4[nH]cc(C(=O)N[C@@H](CC(N)=O)c5ccc(F)c(Cl)c5)c4-c4ccc(Cl)cc4F)ccc3F)cc2NC(=O)c2c[nH]c(=O)cc2C(F)(F)F)C[C@H](C)N1C
# Read-out: thermal unfolding
# Method: differential scanning fluorimetry
# Concentration: 5.5 µM
# Direction: higher = more unfolded
# WDR5: WD repeat-containing protein 5 (WDR5, Homo sapiens, UniProt P61964)
# DCAF1: DDB1- and CUL4-associated factor 1 (DCAF1, Homo sapiens, UniProt Q9Y4B6)
# UniProt Q9Y4B6, sequence (whole entry, looked up): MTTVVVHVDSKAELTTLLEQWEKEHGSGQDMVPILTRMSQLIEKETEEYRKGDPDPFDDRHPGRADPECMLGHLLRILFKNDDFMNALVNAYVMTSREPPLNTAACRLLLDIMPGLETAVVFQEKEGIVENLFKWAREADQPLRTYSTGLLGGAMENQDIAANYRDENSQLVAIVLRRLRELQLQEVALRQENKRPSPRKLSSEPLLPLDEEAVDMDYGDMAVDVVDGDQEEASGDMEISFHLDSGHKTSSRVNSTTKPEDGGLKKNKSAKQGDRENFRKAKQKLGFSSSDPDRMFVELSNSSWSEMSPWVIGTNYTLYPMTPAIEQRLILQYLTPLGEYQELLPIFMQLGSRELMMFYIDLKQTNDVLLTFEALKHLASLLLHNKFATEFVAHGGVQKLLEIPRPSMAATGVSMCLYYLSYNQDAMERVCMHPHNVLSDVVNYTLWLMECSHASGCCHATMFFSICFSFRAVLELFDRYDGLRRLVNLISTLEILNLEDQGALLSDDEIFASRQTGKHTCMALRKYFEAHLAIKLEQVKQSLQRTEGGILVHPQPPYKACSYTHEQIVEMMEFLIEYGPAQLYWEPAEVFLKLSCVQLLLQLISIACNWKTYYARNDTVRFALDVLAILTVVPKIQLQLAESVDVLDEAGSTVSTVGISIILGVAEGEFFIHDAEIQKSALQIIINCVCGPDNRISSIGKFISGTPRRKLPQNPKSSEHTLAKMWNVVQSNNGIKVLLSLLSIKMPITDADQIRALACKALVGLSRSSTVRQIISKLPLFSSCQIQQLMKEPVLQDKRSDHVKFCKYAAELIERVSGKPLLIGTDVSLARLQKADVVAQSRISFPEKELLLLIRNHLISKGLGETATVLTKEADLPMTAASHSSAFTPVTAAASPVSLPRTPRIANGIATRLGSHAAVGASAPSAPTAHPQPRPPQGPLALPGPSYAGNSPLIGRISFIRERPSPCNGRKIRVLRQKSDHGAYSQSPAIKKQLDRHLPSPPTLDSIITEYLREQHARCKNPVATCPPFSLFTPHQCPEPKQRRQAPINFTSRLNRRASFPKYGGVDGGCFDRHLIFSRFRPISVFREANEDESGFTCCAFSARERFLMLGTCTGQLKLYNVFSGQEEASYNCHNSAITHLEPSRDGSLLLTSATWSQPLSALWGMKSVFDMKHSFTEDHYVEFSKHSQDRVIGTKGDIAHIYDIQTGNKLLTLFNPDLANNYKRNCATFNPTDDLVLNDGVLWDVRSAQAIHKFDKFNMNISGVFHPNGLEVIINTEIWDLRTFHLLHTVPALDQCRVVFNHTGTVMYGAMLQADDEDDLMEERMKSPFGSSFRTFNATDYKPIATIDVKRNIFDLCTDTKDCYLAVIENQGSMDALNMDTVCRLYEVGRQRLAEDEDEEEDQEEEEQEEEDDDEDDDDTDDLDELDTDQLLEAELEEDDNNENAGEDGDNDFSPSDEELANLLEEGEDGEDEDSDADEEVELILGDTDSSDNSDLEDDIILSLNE
target,setting,SYPRO Orange fluorescence
WDR5,66.81 °C,14000 a.u.
WDR5,43.6 °C,15000 a.u.
DCAF1,78.61 °C,46600 a.u.
DCAF1,81.61 °C,43400 a.u.
DCAF1,89.41 °C,35700 a.u.
WDR5,48.6 °C,16000 a.u.
WDR5,35.2 °C,13300 a.u.
DCAF1,52.01 °C,16900 a.u.
WDR5,94.61 °C,45600 a.u.
WDR5,34 °C,13200 a.u.
WDR5,70.21 °C,16400 a.u.

# Sample 4
# Structure (SMILES): CCN1/C(=C/C=C2\CCCC(/C=C/C3=[N+](CC)c4ccccc4C3(C)C)=C2NCCCCCCCCN2CCC(Nc3nc4ccccc4n3Cc3ccc(F)cc3)CC2)C(C)(C)c2ccccc21
# Cell line: U-87 MG
# Concentration: concentration not given
# Relative to: DMSO
test,log2 fold change
measured: ZIC4 mRNA,-0.846
measured: DLGAP1 mRNA,1.89
measured: ORC6 mRNA,-1.09
measured: ZSWIM4 mRNA,1.22
measured: MAFG mRNA,0.899
measured: ATP23 mRNA,-1.27
measured: BET1 mRNA,1.14
measured: DCLRE1B mRNA,-1.3
measured: PFAS mRNA,-0.923
measured: DNAH17 mRNA,4.98
measured: AK9 mRNA,1.08
measured: FOXG1 mRNA,-1.34
measured: SYF2 mRNA,0.932
measured: PCDHGC4 mRNA,-1.01
measured: ARTN mRNA,-2.27
measured: ZFYVE1 mRNA,0.998
